Measured values pooled from the literature.
Parts stem from different laboratories: compare values within a part only. Substitutions count along the parent as printed.

Series 1
Target: CCND2, cyclin fold, Cln2 fusion (human)
Technique: yeast growth competition, sequencing
Sample: yeast
Setting: weak parent motif
Reference: not given
Reading: higher = stronger binding
Starting sequence: PKMYT1 docking peptide (human); SFEPRNLLSLFED
`SFEPRNLLSLSED [F11S]`: “normalised enrichment score” 0.154.
`SFEPNNLLSLFED [R5N]` — result for “normalised enrichment score”: -0.0372.
For `SFGPRNLLSLFED [E3G]`, “normalised enrichment score” read -0.167.
`SFMPRNLLSLFED [E3M]`: “normalised enrichment score” 0.265.
For `SFEKRNLLSLFED [P4K]`, “normalised enrichment score” read 0.177.

Series 2
Target: Histone acetyltransferase KAT6A, winged helix 2, GST fusion (KAT6A, Homo sapiens, UniProt Q92794, residues 85-181)
Technique: protein binding microarray
Molecule type: double-stranded DNA, one strand shown
Sample: in vitro
Tested at: not given
Setting: 8-mer, flanks averaged, mean of 2 arrays, mostly near background
Reference: not given
Reading: higher = stronger binding
Residues (chain): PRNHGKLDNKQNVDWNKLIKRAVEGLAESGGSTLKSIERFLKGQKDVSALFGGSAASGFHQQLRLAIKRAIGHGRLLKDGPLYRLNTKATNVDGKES
For `CAGGGCCA`, the E-score was -0.0539.
`CACTCACG` has an E-score of 0.0625.
`AACGGACT` gave an E-score of -0.157.
`GCTTTACA` gave an E-score of -0.0895.
`AGTCCAGG` gave an E-score of -0.0725.

Series 3
Target: RNA binding protein fox-1 homolog 2, RRM domain, GST-SBP tag (RBFOX2, Homo sapiens, UniProt O43251-10, residues 100-194)
Technique: RNA Bind-n-Seq
Molecule type: RNA
Sample: in vitro
Tested at: 365 nM
Setting: natural RNA segment, single round, ends assumed
Reference: no-protein control
Reading: higher = stronger binding
Constant ends, left off below: GGGAGUUCUACAGUCCGACGAUC … UGGAAUUCUCGGGUGCCAA
Target sequence (chain): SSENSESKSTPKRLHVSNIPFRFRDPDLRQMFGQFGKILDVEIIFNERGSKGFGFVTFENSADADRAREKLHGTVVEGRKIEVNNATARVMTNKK
`GAAAUGCUGUCUCUUGUGCAUUUUACUAAUUUCCCCAUUCUUAGGGUAGCAGGGUGGGGGUGUAUAGGGUCUUUUUGAAGCAGUUUUGGAUAGGUUUGCAAUAUGUGGGA`: “RBNS enrichment (R)” 25.7.
`AAUUCUGAAUUUGCAAAGUACUGUAAGAAUAAUUUAUAGUAAUGAGUUUAAAAAUCAACUUUUUAUUCCUUCUCACCAGCUGCAAAGUGUUUUGUACCAGUGAAUUUUUG` — result for “RBNS enrichment (R)”: 0.57.
`GACACAAAAAUUCACAUGGAAAUGGGGAAGAUGGUCUGUUUUGACAGAAACUGACAGGAAUCAAUCAAAACAAUCGAAUUUUGAAUUGAGUAAAGUGCAAUUUCAUUGGA` — result for “RBNS enrichment (R)”: 0.342.
Under “RBNS enrichment (R)”, `GCCACACCGCACUGAGGACUCCAAGGCCUUCGCGGGACCAUGCCGGCCGGGCUGCCUCGUCUUACUCAAGUUGUAUUAAGUUGUCUCCGUGUCCCUUCCUCCCUCUGCCC` is recorded as 0.575.
Under “RBNS enrichment (R)”, `GUGUCCCCAAGGUUCUUCCAUCUUCUAGACUGUAACCCUGCCUCCCUGCUUCCUGGUCCAGAGCCUCCCUCCAGUGACUGUGGAGCCUGAGAAGGCCCCCGGGCCCCAGC` is recorded as 0.353.
`CUGCCUUGAGAGGCCGCGGACAAAGAGCUUCUAAAACCAAGAGUCUCAGCGCUUGAGGAGUGCUGCCUGAUUCUUCUGCAAGCCCCACUGGGAGCCACCACCUCCGGCUC`: “RBNS enrichment (R)” 0.626.
Under “RBNS enrichment (R)”, `CACCCUGGUAGAUUAGCCAGCUGUCAGACUCACUUUUAUUUCAAUCCUUACACUUCAUAAACUUUUGUCUCCACGUUGUUACCAUAUUUGGAGACAGAAACAGGAGUUUC` is recorded as 0.219.
For `CCACAGAAGGGCAGGGGUCUGCUUUGUGGCCACAGUAGGGUAAACCCCAGUUGCAUUUAUCGAGCCUUUCUGAUGGCCACAUAGCUCCUGGCAGUGGGUUGGAAGAUUUC`, “RBNS enrichment (R)” read 2.88.

Mixed results
The fold induction of `PhoQ, residues 284 288 289 292 302 303 SSTLSG` is reported as 16.8 (PhoP, residues 12 14 15 18 19 LHTVM (Escherichia coli, UniProt P23836); Sort-seq, measured: YFP reporter; E. coli; PhoQ-PhoP variant library, added: 10 µM Mg2+; reference: high Mg2+ state, higher = stronger signaling).
